Published values pooled from the literature.
Each line is one published result; not all experiments were run side by side. ± marks the error that the study gave. In brackets after ≈: the same amount, converted by molar mass.

[Br-].c1ccc(-c2nn(-c3nc4ccccc4s3)[n+](-c3ccccc3)n2)cc1
half-life (chemical stability, HPLC; bovine, serum): 2 h

Cn1c(=O)oc2ccc(-c3ccc(CC(C#N)NC(=O)C4CNCCCO4)c(F)c3)cc21 (centres unmarked)
CPK increased incidence (human; oral, 20 mg once daily, TEAE, multiple ascending dose): 0%

Nc1nc2c(ncn2CC(=O)N[C@@H](Cc2ccccc2)C(=O)N[C@@H](Cc2ccccc2)C(=O)O)c(=O)[nH]1
nanofiber width (TEM; hydrogel in water; 2.0 wt%, pH 5.0 or 7.4, with: alkaline phosphatase at pH 7.4): 15 nm

CC(C)C[C@@H](NC(=O)[C@H](NC(=O)[C@H]1CCCN1)[C@H](C)O)C(=O)N[C@H](Cc1c[nH]cn1)C(=O)N[C@@H](C(=O)N[C@H](Cc1c[nH]cn1)C(=O)N[C@H](CC(N)=O)C(=O)N[C@H](CCCNC(=N)N)C(=O)N[C@H](CCCNC(=N)N)C(=O)N[C@H](CCCNC(=N)N)C(=O)N[C@H](CCCNC(=N)N)C(=O)N[C@H](CCCNC(=N)N)C(N)=O)[C@H](C)O
Cmax (beagle dog, plasma; oral, 50 mg/kg, single dose): 2380 ng/mL

CC(C)[C@H](NC(=O)[C@@H]1CCCN1C(=O)[C@H](CCCNC(=N)N)NC(=O)[C@H](CS)NC(=O)[C@H](Cc1c[nH]c2ccccc12)NC(=O)[C@H](CCCNC(=N)N)NC(=O)[C@@H](Cc1ccccc1)NC(=O)[C@H](Cc1c[nH]cn1)NC(=O)[C@H](CCC(=O)O)NC(=O)[C@H](CS)NC(=O)[C@H](CS)NC(=O)CNC(=O)[C@@H]1CC(=O)N[C@@H](CCCNC(=N)N)C(=O)NCC(=O)N[C@@H](CC(=O)O)C(=O)N[C@H](Cc2ccc(O)cc2)C(=O)N1)C(N)=O [technetium-99m labelled]
tumour to tissue ratio (C57 mouse, female, B16/F1 melanoma; intravenous, 0.037 MBq, 2 h; relative to: tumour over muscle): 20.2

CCCC[C@H](NC(=O)CNC(=O)CNC(=O)CN1CCN(CC(=O)O)CCN(CC(=O)O)CC1)C(=O)N[C@H]1CC(=O)NCCCC[C@@H](C(N)=O)NC(=O)[C@H](Cc2c[nH]c3ccccc23)NC(=O)[C@H](CCCNC(=N)N)NC(=O)[C@@H](Cc2ccccc2)NC(=O)[C@H](Cc2c[nH]cn2)NC1=O [copper-64 labelled]
tissue uptake (female C57 mouse, B16/F1 melanoma, heart; intravenous, 0.037 MBq, 4 h): 0.41 ± 0.24 %ID/g

N=C(N)NCCC[C@@H]1NC(=O)[C@H](Cc2c[nH]c3ccccc23)NC(=O)[C@@H](CC2CCCCC2)NC(=O)[C@@H]2CCCN2C(=O)[C@@H](NC(=O)CCc2ccccc2)CCCNC1=O
unchanged drug excreted (C57BL/6J mouse, feces; intravenous, 1 mg/kg, 24 h): ≤ 16%

C/C=C/CNC(=N)NCCCCCCCCN1CCCc2cc(Cl)ccc2COc2ccccc2CNC(=N)NC1=O
membrane retention (PAMPA; egg phosphatidylcholine in dodecane; 500 µM, 5 h, pH 7.4, room temperature): 52.1%

[11CH3]c1ccc2nc(C3CCC3)n(-c3ccc4[nH]ncc4c3)c2n1
absorbed radiation dose (standard human, breasts; extrapolated from mouse biodistribution): 2.3 µSv/MBq

COc1ccc(NC(C)(C)C(=O)Nc2ccc(F)c(Cl)c2)cc1S(=O)(=O)N1CCOCC1
kinetic solubility (water): 219 µM (≈ 106 µg/mL)

COCCOCCOCCOCCOCCOCCOCCOCCOCCOCCOCCOCCNC(=O)CCC1(CCC(=O)NCCOCCOCCOCCOCCOCCOCCOCCOCCOCCOCCOCCOC)c2ccccc2-c2ccc(-c3sc(-c4c5c(c(-c6sc(-c7ccc8c(c7)C(CCC(=O)NCCOCCOCCOCCOCCOCCOCCOCCOCCOCCOCCOCCOC)(CCC(=O)NCCOCCOCCOCCOCCOCCOCCOCCOCCOCCOCCOCCOC)c7ccccc7-8)c7c6OCCO7)c6nsnc46)N=S=N5)c4c3OCCO4)cc21
faecal excretion (KM mice, female, faeces; intravenous, dose not given, 24 h; relative to: dose): ~3%

CC[C@H](C)[C@H](NC(=O)[C@H](N)Cc1ccc(O)cc1)C(=O)N[C@H]1CSSC[C@@H](C(=O)N(C)[C@H](C(N)=O)[C@@H](C)CC)NC(=O)[C@H](CCCNC(=N)N)NC(=O)[C@H](Cc2c[nH]cn2)NC(=O)[C@H](C)NC(=O)CN(C)C(=O)[C@H](Cc2c[nH]c3ccccc23)NC(=O)[C@H](CC(=O)O)NC(=O)[C@H](CCC(N)=O)NC(=O)[C@H](Cc2cn(C)c3ccccc23)NC(=O)[C@H](C(C)C)NC1=O
recovery (UPLC-ESI-MS; human plasma; 0.36 µg/mL, 24 h, 25 °C, bench-top after SPE): 100.3 ± 0.9%

CC[C@H](C)[C@H](NC(=O)[C@H](C)NC(=O)[C@H](CC(N)=O)NC(=O)[C@H](CCCNC(=N)N)NC(=O)[C@H](CCCNC(=N)N)NC(=O)[C@H](CC(N)=O)NC(=O)[C@H](CCCNC(=N)N)NC(=O)[C@H](CCCNC(=N)N)NC(=O)[C@H](C)NC(=O)[C@@H](NC(=O)[C@H](CO)NC(=O)[C@@H](NC(=O)[C@@H](NC(=O)[C@H](CS)NC(=O)[C@H](CCCCN)NC(=O)[C@@H](N)CCCNC(=N)N)C(C)C)[C@@H](C)CC)C(C)C)C(=O)N[C@@H](CCCCN)C(=O)N[C@H](C(=O)N[C@@H](CC(C)C)C(=O)N[C@@H](CS)C(=O)N[C@@H](CC(N)=O)C(=O)O)[C@@H](C)CC
single disulfide form (LC-MS; PBS; 0.1 mg/mL): 33%

CC(=O)N[C@@H](CCC(=O)O)C(=O)N[C@@H](CO)C(=O)NCC(=O)N[C@@H](CO)C(=O)NCC(=O)N[C@@H](CCC(N)=O)C(=O)N[C@@H](CCC(N)=O)C(=O)N[C@@H](CCCCN)C(=O)N[C@@H](Cc1ccccc1)C(=O)N[C@@H](CCC(N)=O)C(=O)N[C@@H](Cc1ccccc1)C(=O)N[C@@H](CCC(N)=O)C(=O)N[C@@H](Cc1ccccc1)C(=O)N[C@@H](CCC(=O)O)C(=O)N[C@@H](CCC(N)=O)C(=O)N[C@@H](CCC(N)=O)C(N)=O
nanofiber width (negative-stain TEM; 1× PBS; 0.2 mM): 11.6 ± 1.58 nm

CC(C)c1cnc(-c2cc(Cl)ccc2F)cc1Nc1ccncc1C(=O)NC(CO)CO
patients with treatment-related adverse event (monotherapy, item: blood alkaline phosphatase increased; human patients; oral, dose not given, grade 4, phase I A): 0%

Oc1ccc2ccccc2c1/N=N/c1ccc(/N=N/c2ccccc2)cc1
freeze-thaw stability deviation (rat whole blood; 16.0 µg/L, freeze-thaw cycle 2): 0.3%

COc1ccc(-c2ccn(CC[C@](C)(C(=O)NO)S(C)(=O)=O)c(=O)c2)c(F)c1
free AUC (CF-1 mouse, female; subcutaneous, 75 mg/kg): 5460 ± 770 ng·h/mL

COC(=O)C(c1ccccc1Cl)N1CCC(SCC(=O)c2cccc(OC)c2)C(=CC(=O)O)C1 (mixture of isomers)
deviation from nominal (HPLC-MS/MS; feline EDTA plasma; 100 ng/mL, 48 h, -20 °C, storage stability): 0%

COCCOCCOCCOc1ccc(/C=C/C2=[N+]3C(=C(c4cc(OC)cc(OC)c4)c4c(C)c(I)c(/C=C/c5ccc(OCCOCCOCCOC)cc5)n4[B-]3(F)F)C(C)=C2I)cc1
absorption maximum (dichloromethane): 664 nm

CCC(=O)N1CC=C(c2cc3c(Nc4cc5ncsc5cc4F)ncnc3s2)CC1
half-life (metabolic stability; human, liver microsomes): 1.65 h

CCCCCCCC(=O)OC[C@H](NC(=O)[C@H](CO)NC(=O)CN)C(=O)N[C@@H](Cc1ccccc1)C(=O)N[C@@H](CC(C)C)C(=O)N[C@@H](CO)C(=O)N1CCC[C@H]1C(=O)N[C@@H](CCC(=O)O)C(=O)N[C@@H](Cc1cnc[nH]1)C(=O)N[C@@H](CCC(N)=O)C(=O)N[C@@H](CCCNC(=N)N)C(=O)N[C@H](C(=O)N[C@@H](CCC(N)=O)C(=O)N[C@@H](CCC(N)=O)C(=O)N[C@@H](CCCNC(=N)N)C(=O)N[C@@H](CCCCN)C(=O)N[C@@H](CCC(=O)O)C(=O)N[C@@H](CO)C(=O)N[C@@H](CCCCN)C(=O)N[C@@H](CCCCN)C(=O)N1CCC[C@H]1C(=O)N1CCC[C@H]1C(=O)N[C@@H](C)C(=O)N[C@@H](CCCCN)C(=O)N[C@@H](CC(C)C)C(=O)N[C@@H](CCC(N)=O)C(=O)N1CCC[C@H]1C(=O)N[C@@H](CCCNC(=N)N)C(=O)O)C(C)C
thirst score (patients with chronic HFrEF; iv infusion, 0.1 µg/kg/min, 60 min into infusion, scale 1-10, median; direction not given): 4

COc1ccc(/C=C/c2ccc(-c3ccc(C)cn3)nc2)cc1
radiative decay rate constant (TCSPC; benzene): 0.71 ns⁻¹

COc1cccc(CNC[C@](O)(COCc2ccccc2)[C@@H]2CC[C@@H](C)C[C@H]2OCc2ccccc2)c1
kinetic solubility (PBS; 2 h, pH 7.4): 40.9 µM (≈ 20.6 µg/mL)

CC(C)CCCC(C)CCCC(C)CCOC1OC[C@H](O)[C@H](O)[C@H]1O (some centres unmarked)
surface tension at CMC (drop shape tensiometry; water; room temperature): 27.3 mN/m

CC[C@@H](C)N([11CH3])C(=O)c1nc(-c2ccccc2Cl)c2ccccc2n1
total volume of distribution (PET Logan analysis; male rhesus monkey, cerebellum; intravenous, dose not given, baseline): 11.3 mL/cm³

C=C(c1ncc(C(=O)O)cn1)c1cc2c(cc1C)C(C)(C)CCC2(C)C
LDL level (Sprague-Dawley rat, male, plasma; oral, 100 mg/kg, 12 h, sesame oil vehicle): 6 ± 2.5 mg/dL

C[Si](C)(C)C[C@@H](CN)CC(=O)O
performance time (neuromuscular coordination; Wistar rat male; oral, 300 mg/kg, 1 h): 180 s

C#CCOc1ccc(/C=C2\SC(=O)N(CC(=O)NCc3ccccc3)C2=O)cc1
correlation volume (inverse Kirkwood-Buff integrals; binary solvent mixture; concentration not given, 298.15 K, mole fraction x1 0.25): 2720 cm³/mol

CCC(C)N(C)C(=O)c1nc(-c2cccc(C(F)(F)[18F])c2)c2ccccc2n1 (centres unmarked)
radiochemical purity (0.1% BSA; 6 h, 37 °C): > 99%

Cc1ccc(C(C)C)cc1.O=C(N=P(c1ccccc1)(c1ccccc1)c1ccccc1)c1ccccn1.[Cl-].[Cl-].[Ru+2]
blood concentration (ICP-MS, item: ruthenium; NOD.CB17-Prkdc scid/J mouse, blood; 6 h after last dose): 4200 ± 1300 ng/mL

COc1ccc(OC)c(/C(=C\c2ccc(O)c(O)c2)C(=O)NCCc2ccc(O)cc2)c1
faecal concentration (C57BL mice, antibiotic-induced dysbacteriosis, faeces; oral, 75 mg/kg of FLZ, 8 weeks, 24 h collection; relative to: control mice): decreased

Cc1noc(C)c1Cn1cc(N2C(=O)CN(Cc3cccc(O[C@@H]4O[C@H](C(=O)O)[C@@H](O)[C@H](O)[C@H]4O)c3)C2=O)cn1
AUC(0-last) (rat Sprague-Dawley male, plasma; oral, 100 mg/kg of parent drug): 44700 ng·h/mL

Some of these lines once more:
CC(C)c1cnc(-c2cc(Cl)ccc2F)cc1Nc1ccncc1C(=O)NC(CO)CO
patients with treatment-related adverse event (monotherapy, item: blood alkaline phosphatase increased; human patients; oral, dose not given, grade 4, phase I A): 0%

Nc1nc2c(ncn2CC(=O)N[C@@H](Cc2ccccc2)C(=O)N[C@@H](Cc2ccccc2)C(=O)O)c(=O)[nH]1
nanofiber width (TEM; hydrogel in water; 2.0 wt%, pH 5.0 or 7.4, with: alkaline phosphatase at pH 7.4): 15 nm
